# Measurements from different studies.
# Parts stem from different laboratories: compare values within a part only. Substitutions count along the parent as printed.

# Set 1 — technique: protein-binding microarray; form: double-stranded DNA, one strand shown; matrix: in vitro; concentration: 2540 nM top; notes: 60-bp whole probe; with: salmon DNA 0.4 mg/ml; reference: random background probes; reading: higher = stronger binding; all sequences stand within: GCCTAGCAC … GTCTTGATTCGCTTGACGCTGCTG
# Target: Interferon regulatory factor 3, full length, phosphomimetic (IRF3, Homo sapiens, UniProt Q14653, residues 1-427, S386D/S396D/S398D/S402D/T404D/S405D)
# Construct (chain): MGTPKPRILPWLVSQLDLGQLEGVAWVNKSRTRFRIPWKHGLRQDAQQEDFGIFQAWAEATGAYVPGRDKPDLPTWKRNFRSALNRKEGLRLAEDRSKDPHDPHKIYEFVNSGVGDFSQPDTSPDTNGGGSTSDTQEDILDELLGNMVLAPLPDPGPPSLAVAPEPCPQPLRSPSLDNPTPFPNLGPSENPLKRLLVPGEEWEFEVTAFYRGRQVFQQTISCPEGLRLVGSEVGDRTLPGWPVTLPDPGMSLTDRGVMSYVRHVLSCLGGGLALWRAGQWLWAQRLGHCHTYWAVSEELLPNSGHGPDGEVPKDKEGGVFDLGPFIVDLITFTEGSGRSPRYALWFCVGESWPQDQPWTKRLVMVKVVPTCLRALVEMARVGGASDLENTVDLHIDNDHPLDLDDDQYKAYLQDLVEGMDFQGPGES
Sequence,fitted relative affinity
TTAGGTATCAGTCTCGATTAGTGCTAG,3.58 z-score
TCATTTTTTTTTTCTGAACTGTGCTAG,1.87 z-score
GACAATTTCGGGTATCGAGACGTGCTA,1.46 z-score
CTTTTTATGCTTTCTTTAACTGTGCTA,3.86 z-score
TTCTTTTTTTCTTTTATTAGGTGCTAG,3.31 z-score
TTAGGTTTCGGTATCTGTTAGTGCTAG,8.08 z-score
TTAGGTCTCCTCCTCCTTTAGTGCTAG,0.605 z-score
TGAGGTCTCCTTCTCCTTTAGTGCTAG,3.7 z-score
TATAGTTATTTTTATTAAAAGTGCTAG,0.652 z-score
TTAGCTATCGGGACTGGATTAGTGCTA,-0.0809 z-score
GACGGACTGGACATTGGGGACGTGCTA,-0.744 z-score
CTAGGACTGGGTCTCGGTTAGTGCTAG,-0.732 z-score
TTAGGACGGGGGTTTCGGTTAGTGCTA,2.81 z-score
CTTGCTTTCCAATTCTCTTTGTGCTAG,4.45 z-score
TTCAGTTTTCTTTTCCATTTGTGCTAG,6.76 z-score
TGTGTTTTCATTTTATGACAGTGCTAG,4.22 z-score
GACGAACTGCGGTATCGAGACGTGCTA,-0.0751 z-score
TCACTTTCCTTCTTGAAACTGTGCTAG,11.1 z-score
TTCGATATCAGACTGGATTAGTGCTAG,0.369 z-score

# Set 2 — technique: RNA Bind-n-Seq; form: RNA; matrix: in vitro; concentration: 200 nM; notes: whole 134-nt RNA, ends assumed; with: 150 mM LiCl; reference: input library; reading: higher = stronger binding; all molecules: 7-deaza-guanosine replaces G
# Target: Fragile X messenger ribonucleoprotein 1, C-terminal low-complexity region (Fmr1, Mus musculus, UniProt P35922)
# All sequences stand within: GGGAGUUCUACAGUCCGACGAUC … UGGAAUUCUCGGGUGUCAAGG
Sequence,log2 enrichment
GCAGGAAGUAAAAACAAAUGGAAAUGCUUCGGAUAGUGGCAGGGUUGGGGGUUGCUAAGGAAAGGGUGGGAUGGGAGUGGGUAAAGAGUU,1.4
UUGACCGGAGCGGCCGUCACUUUGGUACAAUCCUCAAUUACCUGCGGGAUGGGUCUGUGCCACUGCCGGAGAGUACGAGAGAACUGGGGG,-1.73
AGUCCUGUGCUACACAUCGUAUGUACCGAAUCGGCCCCCGGCCCCCGGGGCCCCCGGGAAAGUAUUAUGUUACGCCGUUCGGAUCUGCAC,-2.33
ACAGGAAGUAAAAACAAAUGGAAAUGCUUCGGAUAGUGGCAGGGGUGGGGGUUGCUAAGGAAAGGGUGGGAUGGGAGUGGGUAAAGAGUU,1.44
CUCAAGUCCUGUGCUACACAUCGUAUGUACCGAAUCGGUUGGUUGGGUUGGGGAAAGUAUUAUGUUACGCCGUUCGGAUCUGCACUUCCA,-0.987
CCUCAAGUCCUGUGCUACACAUCGUAUGUACCGAAUCGGUUGGGUUGGUUGGAAAGUAUUAUGUUACGCCGUUCGGAUCUGCACUUCCAG,-0.204
CCUGUGCUACACAUCGUAUGUACCGAAUCGGGGUUUUUUGGGGUUUUUUGGGGUUUUUUGGAAAGUAUUAUGUUACGCCGUUCGGAUCUG,0.898
AAGAUUUAGAGAUGAAUUAAAUUUAAUUAGGGGUUGCUAAGAAGCGAGCACUGACCAGAUAAGAAUGCUGGUUUUCCUAAAUGCAGUGAA,-1.77

# Set 3 — target: CCND3, cyclin fold, Cln2 fusion (human); technique: yeast growth competition, sequencing; matrix: yeast; notes: weak parent motif; reference: not given; reading: higher = stronger binding
# Parent: E2F1 docking peptide (human); PPVKRRLDFETDH; partner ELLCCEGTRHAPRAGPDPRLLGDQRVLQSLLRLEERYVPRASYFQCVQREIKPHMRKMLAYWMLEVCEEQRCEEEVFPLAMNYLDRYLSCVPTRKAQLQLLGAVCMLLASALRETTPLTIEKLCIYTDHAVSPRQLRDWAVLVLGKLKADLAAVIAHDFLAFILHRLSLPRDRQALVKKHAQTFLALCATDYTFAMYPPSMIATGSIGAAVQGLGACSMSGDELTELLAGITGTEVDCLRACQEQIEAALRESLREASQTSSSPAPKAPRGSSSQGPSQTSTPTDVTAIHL
Substitution,normalised enrichment score
PPIKRRLDFETDH [V3I],0.0437
PPVPRRLDFETDH [K4P],0.026
PPVKRHLDFETDH [R6H],-0.291
PPVKTRLDFETDH [R5T],0.241
PPVKRRLDFWTDH [E10W],0.00885
PPVKFRLDFETDH [R5F],-0.0709
PPVKRRLDFETLH [D12L],0.336
PPVVRRLDFETDH [K4V],0.373
PPVYRRLDFETDH [K4Y],-0.00849
PPVKRRLFFETDH [D8F],1.06
PPVKCRLDFETDH [R5C],-0.168
PFVKRRLDFETDH [P2F],-0.185
PPVWRRLDFETDH [K4W],0.34
PPVKRMLDFETDH [R6M],0.197
PPVKRRLCFETDH [D8C],0.58
PGVKRRLDFETDH [P2G],0.752
PPAKRRLDFETDH [V3A],0.468
PPVKLRLDFETDH [R5L],0.119
PPVKRGLDFETDH [R6G],-0.00217
PPVKRRLEFETDH [D8E],0.226
PPVKRRLDSETDH [F9S],0.0937
PPVKRRIDFETDH [L7I],0.00289
PPVKRELDFETDH [R6E],0.481
PPVKRREDFETDH [L7E],0.347

# Set 4 — technique: DHFR PCA, deep sequencing; matrix: yeast; with: (+)-ABA 0 µM; reference: wild-type fitted maximum; reading: higher = stronger binding
# Target: ABI1, truncated, D143A, DHFR fusion (Arabidopsis thaliana)
# Notes: methotrexate growth selection, single substitutions
# Parent: PYL1, truncated, DHFR fusion (Arabidopsis thaliana); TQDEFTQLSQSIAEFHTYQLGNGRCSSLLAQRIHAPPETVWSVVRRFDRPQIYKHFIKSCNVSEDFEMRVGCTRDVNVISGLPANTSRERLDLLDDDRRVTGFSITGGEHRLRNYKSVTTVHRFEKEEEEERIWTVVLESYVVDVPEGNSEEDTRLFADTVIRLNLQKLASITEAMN; partner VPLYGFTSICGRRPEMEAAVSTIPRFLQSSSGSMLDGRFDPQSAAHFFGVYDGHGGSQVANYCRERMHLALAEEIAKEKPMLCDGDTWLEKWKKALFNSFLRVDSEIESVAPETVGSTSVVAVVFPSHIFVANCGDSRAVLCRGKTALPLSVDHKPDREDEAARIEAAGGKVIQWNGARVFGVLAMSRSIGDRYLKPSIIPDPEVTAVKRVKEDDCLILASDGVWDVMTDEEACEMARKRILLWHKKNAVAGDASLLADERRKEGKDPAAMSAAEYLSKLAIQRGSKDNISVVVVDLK
Substitution,relative binding score [%]
N149Y,20.4
G21W,3.99
I33S,-0.0989
L20I,37.6
E67I,15.9
K126H,32
I162N,3.42
S117G,10.2
L20Y,15.9
R163F,-38.1
L112R,-1.02
R69C,16.5
K58W,0.436
T101D,1.92
L156S,2.91

# Some of these lines once more (set 3):
Substitution,normalised enrichment score
PPVKRMLDFETDH [R6M],0.197
PPVKRRLCFETDH [D8C],0.58
PGVKRRLDFETDH [P2G],0.752
PPAKRRLDFETDH [V3A],0.468
PPVKLRLDFETDH [R5L],0.119
PPVKRGLDFETDH [R6G],-0.00217
